Assay results collected from several papers.
Several values in a cell are separate wells, animals, samples, runs or records.
Target: Serine/threonine-protein kinase BRSK2 (BRSK2, Homo sapiens, UniProt Q8IWQ3)

CNC(=O)C[C@H](Cc1ccc(C#N)cc1)NC(=O)c1cc(-c2ccc(CN[C@H](C)c3ccc(C)cc3)o2)ccc1Cl — activity vs control (enzyme activity, inhibitor; 1 µM): 97%
Cc1cccc(-c2ccc3nc(NC(=O)C4CCOCC4)nn3c2)c1 — remaining activity (enzyme activity, Dundee kinase panel; 10 µM): 67%
C=CC(=O)N1Cc2nc(-c3cc(-c4cc(Cl)cnc4Cl)c(F)cc3F)n(-c3ccncn3)c2C1 — inhibition (cell-free assay, inhibitor; 1 µM): -6.9%
C=CC(=O)Nc1cccc(-c2cnc3[nH]cc(C(=O)NC(C)(C)C)c3n2)c1 — inhibition (kinase activity; 0.1 µM): 37% and 34%
O=C=[N][Ru-4]123([n]4c5ccc(O)cc5c5c6c(c7cc(F)c[n+]1c7c54)C(=O)NC6=O)[S+]1CC[S+]2CC[S+]3CC1 (stereo not drawn) — remaining activity (enzyme activity; 100 nM, human enzyme, added: 10 µM ATP; reference: untreated): 80%
Nc1ncc2c(n1)-c1c([nH]c3ccc(C4=CCOCC4)cc13)CCC2 — remaining binding (binding, competition with immobilised ligand; 1 µM): 100%
COc1cc(Nc2nccc(-c3cnn4nc(OC)ccc34)n2)cc(C(F)(F)F)c1 — remaining binding (binding, competition with immobilised ligand; 1 µM): 89%
Cc1cnc2nc1Nc1cccc(c1)COC/C=C/COCc1cc(ccc1OCCN1CCOCC1)N2 — remaining binding (binding; 0.1 µM): 92%
COc1c(Cl)cccc1Nc1c(-c2ccncc2C#C[C@@]2(C)CCCN2C(=O)/C=C/CN(C)C)[nH]c2c1C(=O)NCC2 — remaining binding (binding, competition with immobilised ligand; 3 µM): 90%
CN1CCN(Cc2ccc(-c3ccc(CO[C@H]4CCC[C@@H]4NC(=O)c4cc(-c5cnn(C)c5)cnc4N)cc3)cc2)CC1 — inhibition (enzyme activity, inhibitor; 0.1 µM): -2%
COc1c(OCCCN2CCOCC2)ccc2c1N=C(NC(=O)c1cnc(N)nc1)N1CCN=C21 — remaining activity (kinase activity, inhibitor; 1 µM; reference: untreated control): 108%
CC(C)=CC1OC(C)(C)C2C=C3C(=O)C(Cl)=CC(O)C3C3C(O)C4OC4C(=O)C132 (stereo not drawn) — remaining binding (cell-free assay, competition with immobilised ligand; 10 µM): 83%
N[C@H]1CC[C@H](Nc2nccc(-c3cccnc3Oc3ccc(NC(=O)NC4CC4)c4ccccc34)n2)CC1 — log2 LFQ intensity (kinobead competition pulldown; HEK293/HCT116 lysate mixture; 10 µM, 1 h, 4 °C; lower = stronger competition): 22.5 and 22.7 and 22.6
Nc1ncc(-c2cc(-c3cnn(CC(F)(F)F)c3)ncc2F)nc1C(=O)NC1CNCC(F)C1 (stereo not drawn) — remaining activity (enzyme activity; 1 µM; reference: DMSO control): 66.5%
Cc1cccc(-c2ccc3nc(NC(=O)C4CCCCC4)nn3c2)c1 — remaining activity (enzyme activity, Dundee kinase panel; 10 µM): 64%
Cc1cccc(O[C@H]2CCC[C@@H](C(C)CNCc3ccncc3)C2)c1 (relative stereo) — inhibition (enzyme activity, inhibitor; 10 µM): -9%
NC(=O)[C@@H](O)C[C@H]1CCc2sc3ncnc(O[C@H]4CC[C@H](N5CCOCC5)CC4)c3c21 — inhibition (enzyme activity, inhibitor; 10 µM): 5%
C=CC(=O)N1CCCC(n2c(=O)c3ncccc3n(Cc3ccc(Oc4ccccc4)cc3)c2=O)C1 (stereo not drawn) — remaining binding (cell-free assay, competition with immobilised ligand; 1 µM): 98%

For quick reference, copied from above:
Nc1ncc2c(n1)-c1c([nH]c3ccc(C4=CCOCC4)cc13)CCC2 — remaining binding (binding, competition with immobilised ligand; 1 µM): 100%
Cc1cccc(-c2ccc3nc(NC(=O)C4CCCCC4)nn3c2)c1 — remaining activity (enzyme activity, Dundee kinase panel; 10 µM): 64%
